Measurements of several laboratories.
Lines come from different studies, so protocols differ. “And” joins repeats or separate records; there may be more than shown. ± gives the spread as reported.

CN[C@@H]1COc2c(S(=O)(=O)NC(=O)Nc3c4c(cc5c3CCC5)CCC4)cnn2C1  inhibition (measured: IL-18; human participants, whole blood ex vivo; 900 mg twice daily, multiple doses, 8 h, IL-18, circulating, adjusted for, together with: LPS/ATP; relative to: baseline): 101%
CC(C)C[C@H](NC(=O)[C@H](CC(C)C)NC(=O)[C@H](Cc1c[nH]c2ccccc12)NC(=O)[C@H](CCC(=O)O)NC(=O)[C@@H](NC(=O)[C@H](Cc1ccccc1)NC(=O)[C@H](CCC(=O)O)NC(=O)[C@H](CCCCNC(=O)COCCOCCNC(=O)COCCOCCNC(=O)CC[C@H](NC(=O)CCCCCCCCCCCCCCCCCCC(=O)O)C(=O)O)NC(=O)[C@H](C)NC(=O)[C@H](CCCCN)NC(=O)[C@H](CCCCN)NC(=O)[C@H](CCC(=O)O)NC(=O)[C@H](CC(=O)O)NC(=O)[C@H](CC(C)C)NC(=O)[C@H](Cc1ccc(O)cc1)NC(=O)[C@H](CCCCN)NC(=O)[C@H](CO)NC(=O)[C@H](Cc1ccc(O)cc1)NC(=O)[C@H](CC(=O)O)NC(=O)[C@H](CO)NC(=O)[C@@H](NC(=O)[C@H](Cc1ccccc1)NC(=O)[C@@H](NC(=O)CNC(=O)[C@H](CCC(N)=O)NC(=O)C(C)(C)NC(=O)[C@@H](N)Cc1c[nH]cn1)[C@@H](C)O)[C@@H](C)O)C(C)C)C(=O)N[C@@H](CCC(=O)O)C(=O)NCC(=O)NCC(=O)N1CCC[C@H]1C(=O)N[C@@H](CO)C(=O)N[C@@H](CO)C(=O)NCC(N)=O  percent change from baseline (measured: C-peptide; human, fasting plasma; dose not given, day 134, LS mean; relative to: baseline): -16.9%
COc1ccccc1[C@H](Cn1c(=O)n(C(C)(C)C(=O)O)c(=O)c2c(C)c(-c3ncco3)sc21)OC1CCOCC1  fractional hepatic DNL ([1-13C]acetate infusion, isotopomer analysis; overweight or obese healthy men, plasma VLDL-TG palmitate; oral, 20 mg single dose, 3 h post-dose, together with: oral fructose): 8.08 % new palmitate
O=C(O)CNC(=O)Cc1ccccc1  sarcomere length (ventricular cardiomyocytes, C57BL/6 mouse; dose not given, 0.684 s): 1.72 µm
COc1cc(Nc2ncc3c(n2)-c2ccc(Cl)cc2C(c2c(F)cccc2OC)=NC3)ccc1C(=O)O  median response score (female NOD/scid mice, ALL-2 B-precursor ALL xenograft; 2.6 mg/kg, 5 days weekly, score scale 0 to 10; direction not given): 2
O=C(OC(C(F)(F)F)C(F)(F)F)N1CCN(Cc2cccc(Oc3ccccc3)c2)CC1  k3 (PET blocking study; rhesus monkey, brain STR; 0.01 mg/kg, compound pretreatment, together with: [18F]T-401 tracer): 0.967 min⁻¹
N#Cc1ccn2c(-c3ccncc3)c(-c3ccc(F)cc3)nc2c1  log2 fold change (kinase binding, competitor, MIB/MS competition, measured: TPK2; Candida albicans cell lysate; 100 nM; relative to: DMSO): 0.172
CC1(C)CCC(c2ccc(Cl)cc2)=C(CN2CCN(c3ccc(C(=O)NS(=O)(=O)c4ccc(N[C@H](CCN5CCOCC5)CSc5ccccc5)c(S(=O)(=O)C(F)(F)F)c4)cc3)CC2)C1  EC50 (cell kill, PI exclusion flow cytometry; neoplastic T lymphocytes, human, thawed lymph node; 24 h): 24 nM
Cc1c(C)n(Cc2cccc(OC(C)(C)C(=O)O)c2)c2ccc(C(=O)N[C@@H](C)c3ccc(C(C)(C)C)cc3)cc12  bone volume change (C57BL/6 mouse, diet-induced obesity, proximal tibia; dose not given; relative to: control): 30.6%
CSCCNc1nc(SCCC(F)(F)F)nc2c1ncn2[C@@H]1O[C@H](COP(=O)(O)OP(=O)(O)C(Cl)(Cl)P(=O)(O)O)[C@@H](O)[C@H]1O  patients with inhibition above threshold (platelet aggregation, light transmission aggregometry; human patients, platelet-rich plasma; dose not given, 1 h, inhibition threshold 90%, together with: TRAP 5 µM): 0%
CO[C@H]1CC[C@H](N2C(=O)CNc3ncc(-c4ccc(C(C)(C)O)nc4)nc32)CC1  pAKT change from baseline (flow cytometry; stimulated monocytes, human, blood; 30 mg single dose, 3 h, mean; relative to: baseline): -55.5%
Cc1noc(C)c1-c1cc(C(O)(c2ccccn2)c2ccccn2)c2nc(C3CC3)[nH]c2c1  maximum induction (measured: HEXIM1 expression; human, peripheral blood; 2 mg, day 1, 1599 study): 19.4%
C[C@H]1O[C@@H](O[C@H]2CC[C@@]3(C)[C@@H](CC[C@]4(C)[C@@H]3C=C[C@]35OC[C@@]6(CCC(C)(C)C[C@H]63)[C@@H](O)C[C@]54C)[C@]2(C)CO)[C@H](O)[C@@H](O[C@@H]2O[C@H](CO)[C@@H](O)[C@H](O)[C@H]2O)[C@H]1O  AST/ALT ratio (mouse, chronic-plus-binge ethanol, plasma; dose not given, low dose): 1.91 and 1.67 and 2.03 and 2.17
O=C1CCC(N2Cc3cc(CNC(=O)C(F)(F)c4ccc(Cl)cc4)ccc3C2=O)C(=O)N1 (stereo not drawn)  exchange rate constant (deuterium-hydrogen exchange; aqueous phosphate buffer; pH 7.4, 37 °C): -0.0233 h⁻¹
N#Cc1ccc2c(c1)[C@H]1CCCN(C(=O)c3ccc4[nH]cnc4c3)[C@H]1C2  plasma level (measured: androstenedione; human male, Phase II trial; oral, 20 mg once daily, last treatment, HPA axis, mean): 7.93 nmol/L
O=C(COc1ccc(Cl)cc1)NC12CC(c3nnc([C@H]4C[C@@H](OC(F)(F)F)C4)o3)(C1)C2  ATF4 protein change (healthy human, PBMC; 145 mg once daily, day 15, 24 h post-dose, median, together with: sodium arsenite ex vivo; relative to: baseline): -69.1%
CCN1CCN(Cc2ccc(Nc3ncc(F)c(-c4cc(F)c5nc6n(c5c4)[C@H](C)CCC6)n3)nc2)CC1  confirmed objective response rate (Phase Ia, RECIST v1.1; patients with advanced solid tumours; dose not given, monotherapy, investigator-assessed): 4.2%
C=CCn1c(=O)c2cnc(Nc3ccc(N4CCN(C)CC4)cc3)nc2n1-c1ccc2c(n1)[C@@](O)(CC)CC2  tumour volume difference (HCC1428 xenograft, BALB/c nude mice; oral, 80 mg/kg once daily x 14, day 27): 16.5 ± 5.9 mm3

Some of these lines once more:
CN[C@@H]1COc2c(S(=O)(=O)NC(=O)Nc3c4c(cc5c3CCC5)CCC4)cnn2C1  inhibition (measured: IL-18; human participants, whole blood ex vivo; 900 mg twice daily, multiple doses, 8 h, IL-18, circulating, adjusted for, together with: LPS/ATP; relative to: baseline): 101%
CSCCNc1nc(SCCC(F)(F)F)nc2c1ncn2[C@@H]1O[C@H](COP(=O)(O)OP(=O)(O)C(Cl)(Cl)P(=O)(O)O)[C@@H](O)[C@H]1O  patients with inhibition above threshold (platelet aggregation, light transmission aggregometry; human patients, platelet-rich plasma; dose not given, 1 h, inhibition threshold 90%, together with: TRAP 5 µM): 0%
